Assay results from different studies.
Compare with care: the assays were run in different laboratories.
B1: PPP2R5A E378R (Homo sapiens, UniProt Q15172-1); chain MSSSSPPAGAASAAISASEKVDGFTRKSVRKAQRQKRSQGSSQFRSQGSQAELHPLPQLKDATSNEQQELFCQKLQQCCILFDFMDSVSDLKSKEIKRATLNELVEYVSTNRGVIVESAYSDIVKMISANIFRTLPPSDNPDFDPEEDEPTLEASWPHIQLVYEFFLRFLESPDFQPSIAKRYIDQKFVQQLLELFDSEDPRERDFLKTVLHRIYGKFLGLRAFIRKQINNIFLRFIYETEHFNGVAELLEILGSIINGFALPLKAEHKQFLMKVLIPMHTAKGLALFHAQLAYCVVQFLEKDTTLTEPVIRGLLKFWPKTCSQKEVMFLGEIEEILDVIEPTQFKKIEEPLFKQISKCVSSSHFQVAERALYFWNNRYILSLIEENIDKILPIMFASLYKISKEHWNPTIVALVYNVLKTLMEMNGKLFDDLTSSYKAERQREKKKELEREELWKKLEELKLKKALEKQNSAYNMHSILSNTSAE
B2: PPP2R5A E106R (Homo sapiens, UniProt Q15172-1); chain MSSSSPPAGAASAAISASEKVDGFTRKSVRKAQRQKRSQGSSQFRSQGSQAELHPLPQLKDATSNEQQELFCQKLQQCCILFDFMDSVSDLKSKEIKRATLNELVRYVSTNRGVIVESAYSDIVKMISANIFRTLPPSDNPDFDPEEDEPTLEASWPHIQLVYEFFLRFLESPDFQPSIAKRYIDQKFVQQLLELFDSEDPRERDFLKTVLHRIYGKFLGLRAFIRKQINNIFLRFIYETEHFNGVAELLEILGSIINGFALPLKAEHKQFLMKVLIPMHTAKGLALFHAQLAYCVVQFLEKDTTLTEPVIRGLLKFWPKTCSQKEVMFLGEIEEILDVIEPTQFKKIEEPLFKQISKCVSSSHFQVAERALYFWNNEYILSLIEENIDKILPIMFASLYKISKEHWNPTIVALVYNVLKTLMEMNGKLFDDLTSSYKAERQREKKKELEREELWKKLEELKLKKALEKQNSAYNMHSILSNTSAE
B3: CXCL16; sequence looked up; chain NEGSVTGSCYCGKRISSDSPPSVQFMNRLRKHLRAYHRCLYYTRFQLLSWSVCGGNKDPWVQELMSCLDLKECGHAYSGIVAHQKHLLPTSPPISQASEGASSDIHTPAQMLLSTLQSTQRPTLPVGSLSSDKELTRPNETTIHTAGHSLAAGPEAGENQKQPEKNAGPTARTSATVPVLCLLAIIFILTAALSYVLCKRRRGQSPQSSPDLPVHYIPVAPDSNT

For `quinacrine mustard`, the inhibition was 99.8% (West Nile virus; viral replication, Rluc reporter replicon; Vero with WNV replicon; 50 µM, 24 h).
For C=CCNc1nnc(Sc2ncnc3ccsc23)s1, the inhibition was 31% (MERS-CoV spike VSV pseudovirus; pseudovirus entry; 10 µM).
For COc1nc(N)ncc1-c1cn([C@@H]2O[C@](F)(CO[P@@](=O)(N[C@@H](C)C(=O)OC(C)C)Oc3ccccc3)[C@@H](OC(=O)C(C)C)[C@H]2OC(=O)C(C)C)cn1, the IC50 was greater than 100 µM (Zaire ebolavirus; viral replication, reporter virus; Huh-7; 72 h).
`B1 (PPP2R5A E378R)` — result for binding: “binds” (Vif/CBFB/ELOB/ELOC (HIV-1/Homo sapiens); pull-down).
With CC(C)C(=O)OC[C@@]1(F)O[C@@H](n2cnc(-c3cnc[nH]c3=O)c2)[C@H](OC(=O)C(C)C)[C@@H]1OC(=O)C(C)C the IC50 was 75.3 µM (Zaire ebolavirus; viral replication, reporter virus; Huh-7; 72 h).
`B2 (PPP2R5A E106R)` — result for binding: “binds” (Vif/CBFB/ELOB/ELOC R127E (HIV-1/Homo sapiens); pull-down).
With `ALTPVVVTL` the dissociation half-life was greater than 8 h (HLA class I histocompatibility antigen, A alpha chain, allele A*02:01 (Homo sapiens, UniProt P04439); peptide; 11 µM).
`B3 (CXCL16)`: viral replication “no effect” (Human immunodeficiency virus 1; TZM-bl readout; PHA-stimulated human PBMCs, CXCR4-tropic; 500 ng/mL).

For quick reference, copied from above:
With CC(C)C(=O)OC[C@@]1(F)O[C@@H](n2cnc(-c3cnc[nH]c3=O)c2)[C@H](OC(=O)C(C)C)[C@@H]1OC(=O)C(C)C the IC50 was 75.3 µM (Zaire ebolavirus; viral replication, reporter virus; Huh-7; 72 h).
